Results gathered from unrelated publications.
A part holds a random share of what one study measured. Changes are numbered by the printed parent chain.

Block 1
Target: Histone acetyltransferase KAT6A, both winged helices, GST fusion (KAT6A, Homo sapiens, UniProt Q92794, residues 1-181)
Technique: protein binding microarray
Molecule type: double-stranded DNA, one strand shown
Sample: in vitro
Concentration: not given
Setting: 8-mer, flanks averaged, mean of 2 arrays, mostly near background
Baseline: not given
Direction: higher = stronger binding
Target sequence (chain): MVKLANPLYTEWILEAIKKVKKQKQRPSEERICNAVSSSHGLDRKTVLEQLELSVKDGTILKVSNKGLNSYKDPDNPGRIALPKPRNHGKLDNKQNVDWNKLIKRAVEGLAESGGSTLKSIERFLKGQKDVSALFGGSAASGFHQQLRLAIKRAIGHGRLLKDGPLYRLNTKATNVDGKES
| Strand | E-score |
| --- | --- |
| CCTTTTAA | -0.165 |
| GCTGGTCC | 0.018 |
| ATGGTCGA | -0.0645 |
| AAGCGCCG | 0.372 |
| CCCCCTAC | -0.218 |
| CACTCATA | -0.0481 |
| TCAATTAA | -0.0603 |
| CCTGCGTC | -0.0113 |
| CTCATGCA | -0.187 |
| AACTCAGC | 0.0507 |
| ACGAAGTC | -0.141 |
| ATGAAACC | -0.0239 |
| ATATAGAA | 0.02 |
| CCCCGGAA | 0.0237 |
| CTAGGTAC | -0.166 |
| ACCGTGGC | 0.0171 |
| ACTACGTG | 0.0151 |

Block 2
Target: Sal-like protein 4, full length isoform A (SALL4, Homo sapiens, UniProt Q9UJQ4, residues 1-1053)
Chain of UniProt Q9UJQ4 (whole entry, looked up): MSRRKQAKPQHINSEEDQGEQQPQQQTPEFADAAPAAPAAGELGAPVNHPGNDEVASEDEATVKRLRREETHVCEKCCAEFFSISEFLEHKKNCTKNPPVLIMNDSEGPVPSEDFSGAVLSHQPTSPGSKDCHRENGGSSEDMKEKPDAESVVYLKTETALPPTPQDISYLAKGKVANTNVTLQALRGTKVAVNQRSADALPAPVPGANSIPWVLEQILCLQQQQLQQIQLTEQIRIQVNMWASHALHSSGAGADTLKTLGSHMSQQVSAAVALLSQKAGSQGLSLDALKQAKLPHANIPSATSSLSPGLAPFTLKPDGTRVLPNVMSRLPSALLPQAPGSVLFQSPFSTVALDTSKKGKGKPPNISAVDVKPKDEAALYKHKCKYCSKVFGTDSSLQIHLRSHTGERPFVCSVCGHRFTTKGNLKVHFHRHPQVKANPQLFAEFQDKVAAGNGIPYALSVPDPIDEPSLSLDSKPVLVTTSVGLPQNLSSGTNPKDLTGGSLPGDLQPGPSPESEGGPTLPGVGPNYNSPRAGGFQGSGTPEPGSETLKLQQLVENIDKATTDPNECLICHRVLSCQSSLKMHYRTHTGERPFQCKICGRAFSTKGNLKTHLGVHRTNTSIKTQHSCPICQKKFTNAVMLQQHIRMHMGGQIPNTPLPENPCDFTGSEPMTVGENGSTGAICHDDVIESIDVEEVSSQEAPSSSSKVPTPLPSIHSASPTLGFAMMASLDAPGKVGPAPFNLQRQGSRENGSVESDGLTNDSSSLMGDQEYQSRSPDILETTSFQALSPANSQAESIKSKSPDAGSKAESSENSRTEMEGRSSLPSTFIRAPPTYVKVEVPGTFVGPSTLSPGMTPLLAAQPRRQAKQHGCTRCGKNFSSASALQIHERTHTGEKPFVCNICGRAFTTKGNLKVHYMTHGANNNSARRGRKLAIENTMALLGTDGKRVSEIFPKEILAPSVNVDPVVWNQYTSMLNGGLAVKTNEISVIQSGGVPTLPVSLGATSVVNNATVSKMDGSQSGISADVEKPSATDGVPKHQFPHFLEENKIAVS
Technique: universal PBM
Molecule type: double-stranded DNA, one strand shown
Sample: in vitro
Concentration: 600 nM
Setting: 8-mer, flanks averaged, mean of replicates
Direction: higher = stronger binding
| Strand | E-score |
| --- | --- |
| AGGGGCGA | -0.399 |
| CGTATGAA | 0.253 |
| GATTTATA | 0.284 |
| AACTTAAC | 0.231 |
| AGTGCGTG | -0.215 |
| CGATCGCC | -0.147 |
| TCAGTTCA | 0.0601 |
| ACCGGTCA | -0.159 |
| AATCTGCG | -0.0673 |
| GGCAGTGA | -0.215 |
| ATCGCCAG | -0.113 |
| GGAAGTTA | 0.218 |
| TCTGGGCA | -0.237 |
| CGTACGAG | -0.073 |
| GACATGTC | 0.0564 |
| AATACCCA | 0.183 |
| GAAAACTA | 0.085 |
| AAGAGGAA | 0.114 |
| GGACAGGA | -0.244 |
| CTAGAGTA | 0.00387 |
| CTAGCAGA | -0.1 |
| TCTTCGAA | -0.025 |

Block 3
Target: RNA binding protein fox-1 homolog 2, RRM domain, GST-SBP tag (RBFOX2, Homo sapiens, UniProt O43251-10, residues 100-194)
Technique: RNA Bind-n-Seq
Molecule type: RNA
Sample: in vitro
Concentration: 365 nM
Setting: natural RNA segment, single round, ends assumed
Baseline: no-protein control
Direction: higher = stronger binding
Shared flanks, not repeated: GGGAGUUCUACAGUCCGACGAUC … UGGAAUUCUCGGGUGCCAA
Residues (chain): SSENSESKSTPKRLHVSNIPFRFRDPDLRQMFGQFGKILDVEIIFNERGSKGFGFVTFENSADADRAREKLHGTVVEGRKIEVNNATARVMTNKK
| Strand | RBNS enrichment (R) |
| --- | --- |
| AUUAGAAUAGGAUAGCAUCUGAUGCCUGAGAACCCUCUCCUAGCACUGUCAAAUGCUGGUAUUGAAUGGGGACUGAGGAUGGGUCUCAGAGAGCAACCUCCUCCCUCGUA | 1.26 |
| GCACAGAGCUAAAAUCUCCAAAAGAACUGGGUGUGAACUCACAUGGUGGCUAGGAAGGCAGAGCGCCCUCAGCCCAGCAUAUAGCUGUGAGUAUGUAAUAAAUCACUGCC | 0.519 |
| GAAACUGCCGUAUAGUCACUGUUUUAAAAACCCCGGAGGGGCUGUAUUAAUUUGUAUUGCCCCAUGGCUGACAAAAGCCUUUUUUUUUGGUUUUGAUUUUUUUUUUUUUG | 1.39 |
| GCCGACCAGAGGAAGUCUCUCUGCAUGUUCUAGUGUUAGUAACUAAUUUUUAUAUAGCUAAUGUAGGAUAAAGUAGAGUGCAUUAAGACAAUAUUGUAACCCCACUCUAG | 0.669 |
| CCUGAGGUACUCUGCUGAGUGGGCAAGGCUGAAGAAGAGGCCUGUGGAAUGCAGCAUUACCUGCUGGACAGAGCAGGGCAGGCAGUUCUAUGCCUUGGAGCUCCUGACUG | 2.92 |
| UCUGUUUUUUCCCAGUAGUACAAGGCCAGUGUCCUGAGCAAUGGGACCAGUUCUCCACCUGCUCUGACUGCUCAGGAGGCCUGGGUUCCCAUCUACCCUGUCACACUUCA | 0.337 |
| AUAUUUGAUAGACUGCUUUCAGAAAACCCUUAUCAACAAGUGUACAAUACUUAUCUAAAACUAUACAUUUAGAAUGGAGCAGUUUAAUACUAGAUCUCAGAAGUUUUGAA | 0.491 |
| CAUGGCUAUUCCAGCACCCCAACCUGUAAUUGCCAAGUCCUCUAAGGUACUAAUUUGUAGCUGCUCUGAAGUAAGGAUUUCGGAUUCAGCUGGUAGGGAAAGACUCUGCA | 1.01 |
| UGGCCCUGAGGCCCAGAGAGACAGCUGUCCACUUACCGGCAGGGUAGUCAUAGACAUAGAUACUGCAGCCUGCCCUCCUCUUGAGGCUGUUUCUGACAAACUAUCAAGAC | 0.333 |
| GACUAACUCUACUGUGAAGUCCCACCACAUUCCAGGUUGGAAUUUUAGAUUCAGGGUGGAUUUUCCCUGCCGUGGAAGAACACAGGCAUCUCCCUAGCUUUCUCACGCUA | 0.724 |
| UCUGCCGUGGUCCUGCCGUGGUCCUGCCGUGGAGCCUGUCCCUACACAUGACCUUGGAGCCUCUUGGCCUUCAGAGCAGAGGCAAACCCACCACAGGGCAGCUGCGUUUU | 0.258 |
| CUAUGUCUGCUUACACAGCUUGGACAUGGCUGCUUUCCAUGAAGGAAAUAUAGGGGAGGUGGACUGUAAGGGAUAUAUAACCAGUGUGAAGAACUGCUUCAUAAAAUAUG | 0.927 |

Block 4
Target: ABI1, truncated, D143A, DHFR fusion (Arabidopsis thaliana)
Technique: DHFR PCA, deep sequencing
Sample: yeast
Setting: methotrexate growth selection, single substitutions
Added: (+)-ABA 200 µM
Baseline: wild-type fitted maximum
Direction: higher = stronger binding
Starting sequence: PYL1, truncated, DHFR fusion (Arabidopsis thaliana); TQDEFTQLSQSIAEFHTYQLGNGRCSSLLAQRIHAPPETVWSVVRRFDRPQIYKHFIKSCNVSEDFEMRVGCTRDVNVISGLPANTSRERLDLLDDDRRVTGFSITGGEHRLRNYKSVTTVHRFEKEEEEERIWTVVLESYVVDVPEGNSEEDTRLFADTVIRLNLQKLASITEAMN
| Change | relative binding score [%] |
| --- | --- |
| E109W | 53.5 |
| G21E | 105 |
| K168L | 63.2 |
| W134G | 106 |
| A35Y | 3.75 |
| H55M | 107 |
| R123H | 100 |
| E14A | 94.3 |
| A30C | 101 |
| S11H | 96.9 |
| S117C | 72.8 |
| H122Q | 67.8 |
| T135L | -3.34 |
| E38D | 102 |
| Q19W | 77.4 |
| E130G | 109 |

Block 5
Target: CCND3, cyclin fold, Cln2 fusion (human)
Technique: yeast growth competition, sequencing
Sample: yeast
Setting: weak parent motif
Baseline: not given
Direction: higher = stronger binding
Starting sequence: RBL2 docking peptide (human); STTRRRLFVENDS; partner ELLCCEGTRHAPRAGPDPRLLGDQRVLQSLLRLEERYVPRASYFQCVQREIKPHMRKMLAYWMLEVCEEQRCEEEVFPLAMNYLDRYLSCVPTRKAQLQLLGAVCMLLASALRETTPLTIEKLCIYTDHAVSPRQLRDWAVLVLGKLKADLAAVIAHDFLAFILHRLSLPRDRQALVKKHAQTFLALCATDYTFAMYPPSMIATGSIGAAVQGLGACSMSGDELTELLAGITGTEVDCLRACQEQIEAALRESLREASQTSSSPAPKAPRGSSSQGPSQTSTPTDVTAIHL
| Change | normalised enrichment score |
| --- | --- |
| STVRRRLFVENDS [T3V] | 0.132 |
| ATTRRRLFVENDS [S1A] | 0.147 |
| STTRRRLFVELDS [N11L] | 0.142 |
| STTRRRLFQENDS [V9Q] | 0.0989 |
| STTTRRLFVENDS [R4T] | 0.062 |
| STKRRRLFVENDS [T3K] | 0.16 |
| STHRRRLFVENDS [T3H] | 0.0652 |
| LTTRRRLFVENDS [S1L] | 0.209 |
| STTRRRLFVENDP [S13P] | 0.109 |
| STTRRRLFVEYDS [N11Y] | 0.157 |
| STTRQRLFVENDS [R5Q] | 0.208 |
| STTRRRLPVENDS [F8P] | 0.263 |
| SPTRRRLFVENDS [T2P] | 0.124 |
| STTRRRRFVENDS [L7R] | 0.128 |
| DTTRRRLFVENDS [S1D] | 0.159 |
| STTRSRLFVENDS [R5S] | 0.125 |
| STTRRRLSVENDS [F8S] | 0.172 |
| STTRRRLFFENDS [V9F] | 0.209 |
| STTRLRLFVENDS [R5L] | 0.19 |

Block 6
Target: OGT, full length, His-tagged (human)
Technique: phage display, sequencing
Sample: in vitro
Concentration: 1 µg OGT
Setting: single substitutions, 15-mer displayed peptide, unchanged parent 5.27
Baseline: input library
Direction: higher = stronger binding
Starting sequence: peptide; GDFPVMFMPKYSIIY
| Change | fold enrichment [fold] |
| --- | --- |
| GDQPVMFMPKYSIIY [F3Q] | 4.28 |
| GDFPVTFMPKYSIIY [M6T] | 3.3 |
| GDFPDMFMPKYSIIY [V5D] | 4.83 |
| GDRPVMFMPKYSIIY [F3R] | 2.63 |
| GDFPVMFDPKYSIIY [M8D] | 1.1 |
| GDFPVMFMPKYSAIY [I13A] | 0.636 |
| WDFPVMFMPKYSIIY [G1W] | 6.79 |
| GDFPVMEMPKYSIIY [F7E] | 0.761 |
| GDFPVMFMPWYSIIY [K10W] | 3.23 |
| GDFPVMHMPKYSIIY [F7H] | 1.02 |
| GDFSVMFMPKYSIIY [P4S] | 8.01 |
| GDFPVMFMPKKSIIY [Y11K] | 2.23 |
| GDFPVMFMPKDSIIY [Y11D] | 0.445 |
| GDHPVMFMPKYSIIY [F3H] | 7.44 |
| GDFPVMFMPKYSIIW [Y15W] | 4.03 |
| GDFPVMFMPKYKIIY [S12K] | 7.15 |
| GDFPVMFMPMYSIIY [K10M] | 3.2 |
| GDFPVMKMPKYSIIY [F7K] | 0.913 |
| GDFTVMFMPKYSIIY [P4T] | 3.05 |

Mixed results
| Substance | target | assay | test system | setting | scale | quantity | result |
| --- | --- | --- | --- | --- | --- | --- | --- |
| PhoQ, residues 284 288 289 292 302 303 SSTMSV | PhoP, residues 12 14 15 18 19 GQALL (Escherichia coli, UniProt P23836) | Sort-seq, refers to: YFP reporter | E. coli | PhoQ-PhoP variant library, added: 10 µM Mg2+ | baseline: high Mg2+ state, higher = stronger signaling | fold induction | 1.03 |

Repeated from above (block 5):
| Change | normalised enrichment score |
| --- | --- |
| STTRLRLFVENDS [R5L] | 0.19 |
| DTTRRRLFVENDS [S1D] | 0.159 |
| STTRSRLFVENDS [R5S] | 0.125 |
| STVRRRLFVENDS [T3V] | 0.132 |
| STTRQRLFVENDS [R5Q] | 0.208 |
| LTTRRRLFVENDS [S1L] | 0.209 |
| SPTRRRLFVENDS [T2P] | 0.124 |
| STTRRRLFVELDS [N11L] | 0.142 |
| STTRRRLPVENDS [F8P] | 0.263 |
| STTRRRLFVEYDS [N11Y] | 0.157 |
| STTRRRRFVENDS [L7R] | 0.128 |
| STTRRRLFQENDS [V9Q] | 0.0989 |
| STTRRRLFVENDP [S13P] | 0.109 |
